Results gathered from unrelated publications.
A part holds a random share of what one study measured.

Block 1
Target: TAR DNA-binding protein 43, full length, His tag (TARDBP, Homo sapiens, UniProt Q13148, residues 1-414)
Technique: RNA Bind-n-Seq
Form: RNA
Medium: in vitro
Concentration: 20 nM
Notes: 6-mer, flanks averaged, single round
With: 150 mM LiCl
Relative to: input library
Reading: higher = stronger binding
`UAGAUC` — result for “6-mer enrichment (R)”: 0.863.
`UAUGGG`: “6-mer enrichment (R)” 1.29.
`UGCAUG` — result for “6-mer enrichment (R)”: 1.24.
`CGGUUU` — result for “6-mer enrichment (R)”: 1.01.
Under “6-mer enrichment (R)”, `UCGACC` is recorded as 0.829.

Block 2
Target: Replicase polyprotein 1ab, polymerase (rep, Severe acute respiratory syndrome coronavirus 2, UniProt P0DTD1)
Observed: enzyme activity
Mode: inhibitor
Concentration: 20 µM
`COc1cc2/c(=N/c3ccc(Br)cc3F)nc[nH]c2cc1OCC1CCN(C)CC1` gave an inhibition of -0.9%.
`C/C=C1\[C@H]2C=C(C)C[C@]1(N)c1ccc(=O)[nH]c1C2` gave an inhibition of -5.59%.
The inhibition of `O=[N+]([O-])c1c(Nc2cc(F)cc(Cl)c2)ccc2nonc12` is reported as -0.92%.
`CN([C@@H](Cc1ccc(OS(=O)(=O)c2cccc3cnccc23)cc1)C(=O)N1CCN(c2ccccc2)CC1)S(=O)(=O)c1cccc2cnccc12` gave an inhibition of 6.01%.
The inhibition of `C[N+](C)(C)CCOC(=O)CCC(=O)OCC[N+](C)(C)C` is reported as 3.39%.
With `Cn1c(=O)c2c(ncn2CC(=O)Nc2ccc(-c3ccccc3)nn2)n(C)c1=O` the inhibition was -12.9%.
With `CC(=O)OC[C@H](N)C(=O)O` the inhibition was 6.96%.
For `CN[C@H](C(=O)N[C@H](C(=O)N(C)[C@H](/C=C(\C)C(=O)O)C(C)C)C(C)(C)C)C(C)(C)c1ccccc1`, the inhibition was -9.01%.
The inhibition of `Cc1cc2sc(NC(=O)Cc3ccccc3)nc2cc1Cl` is reported as -10.4%.
With `Cc1cc(F)c(Nc2ncnc3cc(OCc4ccccc4)ccc23)cc1O` the inhibition was -2.66%.
The inhibition of `NC1=N[C@@](c2cccc(-c3cncnc3)c2)(c2ccnc(C(F)F)c2)c2cccc(F)c21` is reported as -0.7%.
The inhibition of `Nc1nc(=O)n([C@H]2C[C@H](O)[C@@H](CO)O2)cc1Cl` is reported as 0.46%.
`C[n+]1cc2c3c(ccc2c2ccc4cc5c(cc4c21)OCO5)OCO3` has an inhibition of 11.8%.
With `O=P(O)(NCCCl)NCCCl` the inhibition was 6.81%.
`NS(=O)(=O)c1cc2c(cc1Cl)NC(C1CC3C=CC1C3)NS2(=O)=O` (centres unmarked) gave an inhibition of -6.21%.
`COc1cccc(-c2cc(F)ccc2[C@H]2Cc3nc(N)nc(C)c3C(=O)N2)n1` gave an inhibition of -4.5%.
`COc1ccc(C(=O)N2CCCc3cc(C4=NNC(=O)SC4C)ccc32)cc1OC` (centres unmarked) gave an inhibition of 5.04%.
For `CC(C)[C@H](CO)Nc1nc(Nc2cccc(Cl)c2)c2ncn(C(C)C)c2n1`, the inhibition was 0.45%.
The inhibition of `C=C1/C(=C\C=C2/CCC[C@]3(C)[C@@H]([C@H](C)CCCC(O)(C(F)(F)F)C(F)(F)F)CC[C@@H]23)C[C@@H](O)C[C@@H]1O` is reported as 2.7%.
With `Cc1onc(-c2c(Cl)cccc2Cl)c1C(=O)N[C@@H]1C(=O)N2[C@@H]1SC(C)(C)[C@@H]2C(=O)O` the inhibition was 12.9%.
`O=[N+]([O-])O[C@@H]1CO[C@H]2[C@@H]1OC[C@@H]2O` gave an inhibition of 6.74%.
With `Cc1cc(CN)cc(C)c1NC(=O)c1ccc(-c2cc(Cl)ccc2Cl)o1` the inhibition was -1.74%.
With `CO[C@@]1(NC(=O)CSCC#N)C(=O)N2C(C(=O)O)=C(CSc3nnnn3C)CS[C@@H]21` the inhibition was 16.9%.
With `Nc1ccn([C@@H]2O[C@H](CO)[C@@H](O)[C@@H]2O)c(=O)n1` the inhibition was 5.36%.
`Cc1c(S(=O)(=O)O)oc2c1C(=O)C(=O)c1c-2ccc2c1CCCC2(C)C` has an inhibition of 8.79%.

Block 3
Cell line: HEK-293T/ACE2
Observed: pseudovirus infection
Organism: VSV pseudotyped with SARS-CoV-2 spike
Concentration: concentration not given
Relative to: vehicle-treated
For `CN1CCc2nc(C(=O)N[C@@H]3C[C@@H](C(=O)N(C)C)CC[C@@H]3NC(=O)C(=O)Nc3ccc(Cl)cn3)sc2C1.Cc1ccc(S(=O)(=O)O)cc1.O`, the GFP-positive cells was 104%.
For `CNC(=O)c1ccc(N2C(=S)N(c3ccc(C#N)c(C(F)(F)F)c3)C(=O)C2(C)C)cc1F`, the GFP-positive cells was 95.8%.
For `CCCCCOc1ccc(-c2cc(-c3ccc(C(=O)N[C@H]4C[C@@H](O)[C@@H](O)NC(=O)[C@@H]5[C@@H](O)[C@@H](C)CN5C(=O)[C@H]([C@H](O)CC(N)=O)NC(=O)[C@H]([C@H](O)[C@@H](O)c5ccc(O)c(OS(=O)(=O)[O-])c5)NC(=O)[C@@H]5C[C@@H](O)CN5C(=O)[C@H]([C@@H](C)O)NC4=O)cc3)no2)cc1.[Na+]`, the GFP-positive cells was 91.8%.
`O=C1CN(/N=C/c2ccc(-c3ccc([N+](=O)[O-])cc3)o2)C(=O)[N-]1.[Na+]` gave a GFP-positive cells of 76%.

Block 4
Target: Replicase polyprotein 1ab, main protease (rep, Severe acute respiratory syndrome coronavirus 2, UniProt P0DTD1)
Observed: enzyme activity
Mode: inhibitor
Concentration: 20 µM
Notes: hit confirmation
The inhibition of `CCOC(=O)C1=C(N)Oc2ccc(Br)cc2[C@H]1[C@H](C#N)C(=O)OCC` is reported as 33.3%.
With `Cc1coc2c1C(=O)C(=O)c1c-2ccc2c(C)cccc12` the inhibition was 1%.
`O=C(O)c1ccc(SSc2ccc(C(=O)O)cn2)nc1` has an inhibition of 98.9%.

Block 5
Target: Ras GTPase-activating protein-binding protein 1, full length (G3BP1, Homo sapiens, UniProt Q13283)
Chain of UniProt Q13283 (whole entry, looked up): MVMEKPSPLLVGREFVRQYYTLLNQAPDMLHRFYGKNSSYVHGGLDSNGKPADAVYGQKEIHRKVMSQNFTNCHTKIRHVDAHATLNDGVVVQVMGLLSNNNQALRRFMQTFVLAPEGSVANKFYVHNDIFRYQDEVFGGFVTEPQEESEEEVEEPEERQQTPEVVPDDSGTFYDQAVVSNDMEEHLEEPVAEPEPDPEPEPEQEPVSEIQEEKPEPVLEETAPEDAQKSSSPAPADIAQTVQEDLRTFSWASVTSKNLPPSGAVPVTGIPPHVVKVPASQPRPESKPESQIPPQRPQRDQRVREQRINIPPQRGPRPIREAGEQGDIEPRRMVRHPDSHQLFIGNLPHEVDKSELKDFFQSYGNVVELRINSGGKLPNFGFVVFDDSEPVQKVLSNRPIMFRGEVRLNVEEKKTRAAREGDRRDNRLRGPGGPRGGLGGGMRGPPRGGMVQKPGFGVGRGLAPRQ
Technique: RNA Bind-n-Seq
Form: RNA
Medium: in vitro
Concentration: 200 nM
Notes: whole 134-nt RNA, ends assumed
With: 150 mM LiCl
Relative to: input library
Reading: higher = stronger binding
Library: 7-deaza-guanosine replaces G
The log2 enrichment of `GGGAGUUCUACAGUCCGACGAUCGUCCUGUGCUACACAUCGUAUGUACCGAAUCGGGGAGGGGUUUGGGGUUUUUUUGGGGAAAGUAUUAUGUUACGCCGUUCGGAUCUGCACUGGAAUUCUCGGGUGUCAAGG` is reported as -0.351.
For `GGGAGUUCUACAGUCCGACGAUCUGGCCCUGGUGGCAUGCGGGGAGGAAGAGGUGGCCUCAUGGAUCGUGUUGGUCCCGGUGGAAUGUUCAGAGGUGGCCGUGGUGGAGACAGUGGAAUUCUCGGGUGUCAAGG`, the log2 enrichment was 0.195.
The log2 enrichment of `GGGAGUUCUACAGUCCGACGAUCUGGCCCUGGUGGCAUGCGGGGAGGAAGAGGUGGCCUCAUGGAUCGUGGUGGUCCCGGUGGAAUGUUCAGAGGUGGCCGUGGUGGAGACACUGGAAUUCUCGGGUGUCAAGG` is reported as 0.662.
For `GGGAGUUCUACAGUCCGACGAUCUCCUGUGCUACACAUCGUAUGUACCGAAUCGGAAAAAAAGGAAAAAAAGGAAAAAAAGGGAAAGUAUUAUGUUACGCCGUUCGGAUCUGCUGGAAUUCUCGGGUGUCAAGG`, the log2 enrichment was -0.592.
For `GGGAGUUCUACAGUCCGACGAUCUGGCCCUGGUGGCAUGCGGGGAGGAAGAGGUGGCCUCAUGGAUCGUGGUGGUCCCGGUGGAAUGUUCAGAGGUGACCGUGGUGGAGACAGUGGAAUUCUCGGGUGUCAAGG`, the log2 enrichment was 0.264.
With `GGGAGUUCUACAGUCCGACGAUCUGUCCCUGGUGGCAUGCGGGGAGGAAGAGGUGGCCUCAUGGAUCGUGGUGGUCCCGGUGGAAUGUUCAGAGGUGGCCGUGGUGGAGACAGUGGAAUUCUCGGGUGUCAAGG` the log2 enrichment was 0.467.
For `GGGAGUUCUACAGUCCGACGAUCUGCCGAUUCGGAAGUCCUUGAGGAGCGUCAGAAGCGGCUUCCCUACGUCCCAGAGCCCUAUUACCCGGAAUCUGGAUGGGACCGCCUCCGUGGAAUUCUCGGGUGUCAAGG`, the log2 enrichment was -0.961.
With `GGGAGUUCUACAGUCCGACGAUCAGUCCUGUGCUACACAUCGUAUGUACCGAAUCGGAAAGGAAAAAAAGGAAAAAAAGGAAAGUAUUAUGUUACGCCGUUCGGAUCUGCACUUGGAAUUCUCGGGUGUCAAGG` the log2 enrichment was -0.964.

Block 6
Target: Centromere-binding protein 1, full length, N-terminal tag (CBF1, Saccharomyces cerevisiae, UniProt P17106, residues 1-351)
Chain of UniProt P17106 (whole entry, looked up): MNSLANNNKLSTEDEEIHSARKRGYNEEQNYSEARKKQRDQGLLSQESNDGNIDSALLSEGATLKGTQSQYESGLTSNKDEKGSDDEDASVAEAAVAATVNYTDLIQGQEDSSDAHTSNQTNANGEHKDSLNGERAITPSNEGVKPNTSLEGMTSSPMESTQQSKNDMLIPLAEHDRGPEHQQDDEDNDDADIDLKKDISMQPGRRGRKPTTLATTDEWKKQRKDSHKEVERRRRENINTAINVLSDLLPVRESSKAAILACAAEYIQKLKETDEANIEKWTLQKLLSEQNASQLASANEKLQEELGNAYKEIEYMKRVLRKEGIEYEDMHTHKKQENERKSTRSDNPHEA
Technique: protein-binding microarray
Form: double-stranded DNA, one strand shown
Medium: in vitro
Concentration: 0.8 µM
Notes: whole 60-bp probe, no competitor
Reading: higher = stronger binding
`GAATTTTCTACTCATAACCTCACGCAAAATAACTAGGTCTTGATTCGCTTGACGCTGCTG` gave a fluorescence intensity of 546 a.u.
`CCTAACTACTATATTCATGTGCTATAGCTTCGTACAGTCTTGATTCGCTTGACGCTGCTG` gave a fluorescence intensity of 585 a.u.
`CTAGCCGATTCTAATCATGTGACTCCTTTTCCCTTCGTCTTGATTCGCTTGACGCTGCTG` gave a fluorescence intensity of 8230 a.u.
`GAAATACCACTCAAGAACGTGCATAGATCCGCATAGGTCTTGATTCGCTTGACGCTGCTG` has a fluorescence intensity of 604 a.u.
`CTACTGCTTTTCCTCGAGGTCACCCAAATATACTTCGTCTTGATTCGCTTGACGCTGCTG` has a fluorescence intensity of 533 a.u.
The fluorescence intensity of `CTAAATAGATCTAGGCACGTGGCTGCAGTGACTTTCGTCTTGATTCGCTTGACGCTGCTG` is reported as 7910 a.u.
The fluorescence intensity of `CTAATTGGATGCTAAGACGTGATAGAGCTGGTTTTCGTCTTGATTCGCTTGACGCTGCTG` is reported as 544 a.u.
`CTATCCTCTTCTTTTCACATGAGAAATGATATATTCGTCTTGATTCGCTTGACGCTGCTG` gave a fluorescence intensity of 626 a.u.
